Measurements from different studies.
Parts stem from different laboratories: compare values within a part only. Positions count from the first letter of the parent shown.

Block 1
Target: RNA binding protein fox-1 homolog 2, RRM domain, GST-SBP tag (RBFOX2, Homo sapiens, UniProt O43251-10, residues 100-194)
Technique: RNA Bind-n-Seq
Molecule type: RNA
Medium: in vitro
Concentration: 365 nM
Setting: natural RNA segment, single round, ends assumed
Relative to: no-protein control
Direction: higher = stronger binding
Construct (chain): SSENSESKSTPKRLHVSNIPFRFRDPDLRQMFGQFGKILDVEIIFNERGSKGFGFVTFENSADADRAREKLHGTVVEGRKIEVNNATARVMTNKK
| Strand | RBNS enrichment (R) |
| --- | --- |
| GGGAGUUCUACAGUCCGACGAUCAGACAUAAUUGUUAUCUCCUUUUGGCUUAUGUGAUUUUCUGUUUACAAGUAGAAUAGCCAAUUAUUUAAAUGUUUAGUUGCCACAGUGAACCAGGAGUCACUGAGCCAAUUGGAAUUCUCGGGUGCCAA | 0.638 |
| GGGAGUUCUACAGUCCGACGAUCGUUGUUGUGACCCCCAACCAUAAAAUCAUUUUGUUGCUAUUUCAUGUCUGUAAUUUUGCUAGUUCAUGAACUGUAAUGUAAACAUCUGGUAUGAAGAAUAUCUGAUAUGCUGGAAUUCUCGGGUGCCAA | 0.516 |
| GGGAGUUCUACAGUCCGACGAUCCGGGUAGCCAGAGGCUUUGAGCCUCAUUUCCUUGCUCUGACUUCAAUAAAGACUUUUCAAUCAAACCAACUACACUGUCUUCUUGUAGAGUUUCCUGGUGAAAGCUCUGGUGGAAUUCUCGGGUGCCAA | 0.292 |
| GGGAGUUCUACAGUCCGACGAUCUCAGAAACUUUAUUUUAGCUGUCAAGCAGAGAAUAGCUUGAACUAUUCAGACUAUUGUUGGCACUGUUUAGUAGUGACCACACGCUCUUCUACCCGGGAAGGAACAUAUGUGGAAUUCUCGGGUGCCAA | 0.357 |
| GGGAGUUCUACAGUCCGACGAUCUCUCUUCCCUGCGCCUGUGAUGCUGGGCACUUCAUCUGAUCGGGGGCGUAGCAUCAUAGUAGUUUUUACAGCUGUGUUAUUCUUUGCGUGUAGCUAUGGAAGUUGCAUAAUGGAAUUCUCGGGUGCCAA | 0.396 |
| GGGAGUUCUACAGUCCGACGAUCGCAGGACUUCACAAGUUAAUCAUUCCUUAGGCCUCCCUUGGCCCUUUCAUCCUGGAUUCUUAGGUGGGAAUCAGACACUUAGAAAGAUGUUGGGUCAAGGUUCUAGGAGCUGGAAUUCUCGGGUGCCAA | 0.431 |
| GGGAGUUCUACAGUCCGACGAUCUGGCCACGUUGCAAUAAAAAUUGUGGCAUAUUACAGAACGUUGCCUUGUUUUCCUUGGAAAUUUUGCAAAAUGUUAUGUGAAACAACUUCUAGGGUAAAAACAGCUAUUAUGGAAUUCUCGGGUGCCAA | 0.382 |
| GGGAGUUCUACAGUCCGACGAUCGGCGUUCACAGCCCCCAUACAUGGAUCUUGUUUAAAGUGUAUUAUUUAAAAGGUCAGGGUGUUAUUUUCUUCUAUAAUAAAACAGCUCACUUGUGUUGUGCUCCAGAGUGUGGAAUUCUCGGGUGCCAA | 0.596 |
| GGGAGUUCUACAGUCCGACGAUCAACACUGGGAAGUGAUUCUUCCCUCAGGCCCCUCUGCCUACCAACACCUGGGCUCCUCACUGGGGGAAACAAAAGCCUAUAAACCCCAGCAACAAAACCUAGUCCUCUUAUGGAAUUCUCGGGUGCCAA | 0.442 |
| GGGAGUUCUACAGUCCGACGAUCUUCCCUGACUUUACAUGGUGUUUUGUUAAUGCAAAUCCGGGAAGCAGGUGUGAUUGCUUUUUGCUCGUAGAUAUUAUCCUAAGUUGAAAUCCCCUAAAUCUCCCUUAGUAUGGAAUUCUCGGGUGCCAA | 0.806 |
| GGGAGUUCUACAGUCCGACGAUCCCCUGCCCAGUCCUAGCCUCCCCGUCACUGUCUCGGCUGCUCCCCCAUAGUUGGUUAUUUUUUAUUUGGGGCAGUGGGUGCAUACGGGGAGGGGAGGGUGUUCUUCCCAAUGGAAUUCUCGGGUGCCAA | 0.622 |
| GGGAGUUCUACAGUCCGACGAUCCCAGAAUAGUCAACAGUGUUCAAAAGAAUUGACUAGUUAUCCCUGAGGCCCUUUCAAACAUGAUCAAAGAUUUCCCAAUGUGAUCUCAUCAUCAUGGAUACUCAAUUUGUUGGAAUUCUCGGGUGCCAA | 0.407 |

Block 2
Target: CCND1, cyclin fold, Cln2 fusion (human)
Technique: yeast growth competition, sequencing
Medium: yeast
Setting: weak parent motif
Relative to: not given
Direction: higher = stronger binding
Parent: SLBP docking peptide (human); ARYKRKLLINDFG; partner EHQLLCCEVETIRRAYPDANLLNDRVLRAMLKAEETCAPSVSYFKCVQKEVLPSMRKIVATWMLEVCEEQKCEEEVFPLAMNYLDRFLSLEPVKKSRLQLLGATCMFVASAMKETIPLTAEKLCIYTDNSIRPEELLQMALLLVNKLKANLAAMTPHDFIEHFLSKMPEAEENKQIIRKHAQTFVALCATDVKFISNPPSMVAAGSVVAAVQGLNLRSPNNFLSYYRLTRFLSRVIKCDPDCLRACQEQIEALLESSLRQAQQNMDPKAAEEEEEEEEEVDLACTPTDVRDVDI
| Change | normalised enrichment score |
| --- | --- |
| G13Y | 0.243 |
| K4R | -0.449 |
| A1I | -0.224 |
| F12P | -0.118 |
| L7K | -0.441 |
| R5A | 0.228 |
| K4S | -0.34 |
| K6Q | 0.726 |
| L7C | 0.12 |
| L8H | -0.313 |
| Y3D | 0.268 |
| I9P | 0.395 |
| F12R | -0.346 |
| F12D | -0.082 |
| L7T | -0.378 |
| Y3Q | 0.209 |
| K6M | -0.157 |
| I9A | -0.395 |
| L8S | -0.366 |
| L7Q | 0.0632 |
| L8K | -0.729 |
| R5I | 0.375 |
| N10T | 0.0937 |
| N10M | 0.124 |
| D11A | 0.608 |

Block 3
Target: Interferon regulatory factor 5, full length, phosphomimetic (IRF5, Homo sapiens, UniProt Q13568-2, residues 1-514, K96S/S451D/S453D/S456D/S462D)
Technique: protein-binding microarray
Molecule type: double-stranded DNA, one strand shown
Medium: in vitro
Concentration: 250 nM
Setting: 60-bp whole probe
With: salmon DNA 0.4 mg/ml
Relative to: random background probes
Direction: higher = stronger binding
Shared flanks, not repeated: GCCTAGCAC … GTCTTGATTCGCTTGACGCTGCTG
| Strand | log fluorescence |
| --- | --- |
| GACGGACTGCTTGTCCTGACGTGCTAG | -0.521 z-score |
| GACGAACTGGGGACTGGCGACGTGCTA | -0.523 z-score |
| AGCTGTTTGAGAAATCAGATGGTGCTA | 0.166 z-score |
| TCATTCCTGATCTCTGGTCTTGTGCTA | 0.538 z-score |
| AGTGGCCCAGGGCATCCCCTGTGCTAG | -0.594 z-score |
| GACGGACTGGGTATCGCGACGTGCTAG | -0.72 z-score |
| TTTACTTTCTGAATGCTCCCGTGCTAG | 4.99 z-score |
| TTAGGTTACGACTATCGGTTAGTGCTA | 6.46 z-score |
| GACGTACTGGGTATCGGGACGTGCTAG | 0.346 z-score |
| GACGGTATCGGGACTGTGGACGTGCTA | 1.26 z-score |
| GACGGTTTCGGGTTTCAGGACGTGCTA | 7.43 z-score |
| TTAGATTTCTGGACTGGATTAGTGCTA | 0.807 z-score |
| CGGATGATCTCTCTGGGCAAGTGCTAG | -0.288 z-score |
| TTAGATTCCAGTTACGATTAGTGCTAG | 0.713 z-score |
| AGACTTTTTTCAGACCTGTCGTGCTAG | 0.767 z-score |
| GAAGGTTTCCTTATCCTGACGTGCTAG | 0.918 z-score |
| TTAGGATTGGGTATCGGTTAGTGCTAG | 5.05 z-score |
| TAAGGACTGGGACTGGGTTAGTGCTAG | -0.551 z-score |

Other studies, line by line
| Molecule | target | assay | system | setting | how to read | measurement | result |
| --- | --- | --- | --- | --- | --- | --- | --- |
| PhoQ, residues 284 288 289 292 302 303 HSYLQF | PhoP, residues 12 14 15 18 19 SYFRT (Escherichia coli, UniProt P23836) | Sort-seq, refers to: YFP reporter | E. coli | PhoQ-PhoP variant library, with: 10 µM Mg2+ | relative to: high Mg2+ state, higher = stronger signaling | fold induction | 11 |

Excerpt of the above (block 3):
| Strand | log fluorescence |
| --- | --- |
| CGGATGATCTCTCTGGGCAAGTGCTAG | -0.288 z-score |
| TAAGGACTGGGACTGGGTTAGTGCTAG | -0.551 z-score |
| AGACTTTTTTCAGACCTGTCGTGCTAG | 0.767 z-score |
| GACGAACTGGGGACTGGCGACGTGCTA | -0.523 z-score |
| AGTGGCCCAGGGCATCCCCTGTGCTAG | -0.594 z-score |
| TTAGATTTCTGGACTGGATTAGTGCTA | 0.807 z-score |
| TCATTCCTGATCTCTGGTCTTGTGCTA | 0.538 z-score |
